Results collected from several papers.
Numbered parts are unrelated; each lists some results of a single study.
Sequence of UniProt Q9UK32 (whole entry, looked up): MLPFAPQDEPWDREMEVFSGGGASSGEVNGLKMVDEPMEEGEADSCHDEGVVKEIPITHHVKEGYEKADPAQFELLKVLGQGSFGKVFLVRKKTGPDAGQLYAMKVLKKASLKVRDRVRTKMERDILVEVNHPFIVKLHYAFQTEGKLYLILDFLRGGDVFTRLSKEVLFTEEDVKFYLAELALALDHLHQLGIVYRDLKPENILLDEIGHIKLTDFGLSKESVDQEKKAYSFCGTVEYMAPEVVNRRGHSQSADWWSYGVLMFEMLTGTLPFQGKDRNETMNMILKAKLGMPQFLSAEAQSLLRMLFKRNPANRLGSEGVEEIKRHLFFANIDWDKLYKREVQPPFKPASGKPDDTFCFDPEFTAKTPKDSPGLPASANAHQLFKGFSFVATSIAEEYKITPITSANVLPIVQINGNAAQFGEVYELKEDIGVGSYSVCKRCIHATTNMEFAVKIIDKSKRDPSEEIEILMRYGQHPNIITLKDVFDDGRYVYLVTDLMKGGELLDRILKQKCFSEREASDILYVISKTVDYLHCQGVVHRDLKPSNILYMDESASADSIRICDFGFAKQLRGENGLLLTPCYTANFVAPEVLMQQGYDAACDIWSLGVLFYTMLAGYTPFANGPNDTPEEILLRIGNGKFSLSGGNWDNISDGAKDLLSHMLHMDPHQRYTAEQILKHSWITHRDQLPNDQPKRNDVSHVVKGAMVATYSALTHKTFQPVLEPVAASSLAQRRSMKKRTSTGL
Sequence of UniProt P30530 (whole entry, looked up): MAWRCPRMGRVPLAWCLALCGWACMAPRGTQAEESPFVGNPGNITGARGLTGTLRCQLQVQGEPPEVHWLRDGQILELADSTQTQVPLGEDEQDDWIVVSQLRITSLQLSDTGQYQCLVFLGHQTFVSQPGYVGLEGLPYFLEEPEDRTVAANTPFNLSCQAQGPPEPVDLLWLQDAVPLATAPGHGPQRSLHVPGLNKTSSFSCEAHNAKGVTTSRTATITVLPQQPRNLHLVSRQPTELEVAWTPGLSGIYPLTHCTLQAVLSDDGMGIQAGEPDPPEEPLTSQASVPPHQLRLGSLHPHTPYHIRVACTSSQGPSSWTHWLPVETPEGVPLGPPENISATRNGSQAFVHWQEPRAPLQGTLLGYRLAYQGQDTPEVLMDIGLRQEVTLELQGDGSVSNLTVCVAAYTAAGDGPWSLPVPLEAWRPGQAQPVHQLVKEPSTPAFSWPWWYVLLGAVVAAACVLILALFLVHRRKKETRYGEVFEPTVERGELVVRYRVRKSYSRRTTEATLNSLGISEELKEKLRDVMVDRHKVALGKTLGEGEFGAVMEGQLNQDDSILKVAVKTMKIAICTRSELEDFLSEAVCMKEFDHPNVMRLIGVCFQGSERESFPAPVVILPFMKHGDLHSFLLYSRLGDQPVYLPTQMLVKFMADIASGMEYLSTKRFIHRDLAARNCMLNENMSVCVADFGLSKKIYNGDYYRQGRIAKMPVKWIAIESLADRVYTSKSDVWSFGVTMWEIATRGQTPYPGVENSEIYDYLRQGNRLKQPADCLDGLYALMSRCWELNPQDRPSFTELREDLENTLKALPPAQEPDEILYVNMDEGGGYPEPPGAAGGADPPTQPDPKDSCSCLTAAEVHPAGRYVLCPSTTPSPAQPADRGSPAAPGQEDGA
Sequence of UniProt P53350 (whole entry, looked up): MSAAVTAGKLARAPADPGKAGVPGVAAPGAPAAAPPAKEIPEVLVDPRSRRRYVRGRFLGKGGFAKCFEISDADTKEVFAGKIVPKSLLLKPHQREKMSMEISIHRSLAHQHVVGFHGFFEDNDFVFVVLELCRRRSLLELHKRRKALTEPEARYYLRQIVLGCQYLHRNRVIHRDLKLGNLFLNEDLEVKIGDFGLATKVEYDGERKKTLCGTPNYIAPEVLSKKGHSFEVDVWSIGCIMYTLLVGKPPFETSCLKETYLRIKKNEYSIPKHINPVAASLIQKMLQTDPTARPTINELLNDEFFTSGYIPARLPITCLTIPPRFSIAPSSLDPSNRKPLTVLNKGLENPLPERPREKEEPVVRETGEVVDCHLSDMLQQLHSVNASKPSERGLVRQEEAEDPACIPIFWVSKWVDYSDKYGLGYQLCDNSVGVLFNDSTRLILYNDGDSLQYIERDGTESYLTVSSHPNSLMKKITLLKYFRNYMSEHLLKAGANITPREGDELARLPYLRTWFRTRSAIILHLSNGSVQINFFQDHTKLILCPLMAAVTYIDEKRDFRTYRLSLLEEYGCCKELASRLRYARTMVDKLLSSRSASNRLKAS
Sequence of UniProt P54764 (whole entry, looked up): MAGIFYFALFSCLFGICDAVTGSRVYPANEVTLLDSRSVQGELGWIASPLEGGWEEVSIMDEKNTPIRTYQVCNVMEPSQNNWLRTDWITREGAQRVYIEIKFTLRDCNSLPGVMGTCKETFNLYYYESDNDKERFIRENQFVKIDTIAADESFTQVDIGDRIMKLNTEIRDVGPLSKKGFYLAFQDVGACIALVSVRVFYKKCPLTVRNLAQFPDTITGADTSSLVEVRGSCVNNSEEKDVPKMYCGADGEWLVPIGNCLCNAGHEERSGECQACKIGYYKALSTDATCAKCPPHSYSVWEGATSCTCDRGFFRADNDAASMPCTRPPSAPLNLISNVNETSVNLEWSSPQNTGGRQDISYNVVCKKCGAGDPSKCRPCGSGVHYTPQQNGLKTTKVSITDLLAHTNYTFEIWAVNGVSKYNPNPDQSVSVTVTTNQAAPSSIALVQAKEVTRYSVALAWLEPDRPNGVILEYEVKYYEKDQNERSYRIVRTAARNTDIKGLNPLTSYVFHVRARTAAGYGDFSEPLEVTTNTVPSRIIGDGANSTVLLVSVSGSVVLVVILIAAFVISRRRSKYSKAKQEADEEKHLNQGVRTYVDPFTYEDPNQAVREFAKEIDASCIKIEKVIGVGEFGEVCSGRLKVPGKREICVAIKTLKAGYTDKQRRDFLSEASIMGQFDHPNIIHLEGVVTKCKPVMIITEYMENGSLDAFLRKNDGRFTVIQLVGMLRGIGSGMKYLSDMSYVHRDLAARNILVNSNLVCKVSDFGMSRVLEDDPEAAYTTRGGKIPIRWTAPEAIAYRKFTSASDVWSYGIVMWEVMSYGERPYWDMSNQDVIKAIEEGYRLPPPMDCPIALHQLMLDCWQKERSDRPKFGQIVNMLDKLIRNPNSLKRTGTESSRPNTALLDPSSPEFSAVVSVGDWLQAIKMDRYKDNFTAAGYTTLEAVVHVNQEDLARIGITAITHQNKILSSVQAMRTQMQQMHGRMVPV
Sequence of UniProt Q96PF2 (whole entry, looked up): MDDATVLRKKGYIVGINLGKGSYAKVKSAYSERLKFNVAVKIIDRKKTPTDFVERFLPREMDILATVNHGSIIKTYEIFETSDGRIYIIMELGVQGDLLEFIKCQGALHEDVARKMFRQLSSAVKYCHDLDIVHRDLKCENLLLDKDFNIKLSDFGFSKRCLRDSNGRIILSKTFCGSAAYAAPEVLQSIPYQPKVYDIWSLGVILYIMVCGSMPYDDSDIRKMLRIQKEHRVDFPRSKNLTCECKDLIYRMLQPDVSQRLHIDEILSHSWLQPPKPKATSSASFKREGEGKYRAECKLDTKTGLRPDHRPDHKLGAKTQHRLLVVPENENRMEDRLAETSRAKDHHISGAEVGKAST
Sequence of UniProt Q96L34 (whole entry, looked up): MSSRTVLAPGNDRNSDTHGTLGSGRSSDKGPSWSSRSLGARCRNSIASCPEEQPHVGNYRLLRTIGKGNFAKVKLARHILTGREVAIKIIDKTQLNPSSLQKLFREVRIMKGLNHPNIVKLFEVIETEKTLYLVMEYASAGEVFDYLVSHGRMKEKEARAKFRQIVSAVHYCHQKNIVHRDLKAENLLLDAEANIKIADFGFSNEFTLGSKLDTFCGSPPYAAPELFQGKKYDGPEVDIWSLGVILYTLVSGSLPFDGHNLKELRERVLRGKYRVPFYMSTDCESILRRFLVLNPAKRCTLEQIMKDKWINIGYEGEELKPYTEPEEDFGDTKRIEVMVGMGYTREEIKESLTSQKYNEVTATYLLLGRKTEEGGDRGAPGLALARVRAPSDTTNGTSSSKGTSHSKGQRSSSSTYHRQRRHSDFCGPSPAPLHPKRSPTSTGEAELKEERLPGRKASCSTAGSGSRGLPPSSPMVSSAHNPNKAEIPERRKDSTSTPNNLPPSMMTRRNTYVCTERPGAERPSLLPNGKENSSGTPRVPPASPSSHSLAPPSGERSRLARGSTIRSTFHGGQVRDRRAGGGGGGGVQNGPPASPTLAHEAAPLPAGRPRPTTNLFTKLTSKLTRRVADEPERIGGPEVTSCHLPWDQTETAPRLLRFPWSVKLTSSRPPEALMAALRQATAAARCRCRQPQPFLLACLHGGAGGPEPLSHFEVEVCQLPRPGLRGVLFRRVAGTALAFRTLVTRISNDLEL

Sample 1 — observed: enzyme activity; mode: inhibitor; concentration: 10 µM; quantity: inhibition
Target: Calcium/calmodulin-dependent protein kinase type II subunit alpha (CAMK2A, Homo sapiens, UniProt Q9UQM7)
Sequence of UniProt Q9UQM7 (whole entry, looked up): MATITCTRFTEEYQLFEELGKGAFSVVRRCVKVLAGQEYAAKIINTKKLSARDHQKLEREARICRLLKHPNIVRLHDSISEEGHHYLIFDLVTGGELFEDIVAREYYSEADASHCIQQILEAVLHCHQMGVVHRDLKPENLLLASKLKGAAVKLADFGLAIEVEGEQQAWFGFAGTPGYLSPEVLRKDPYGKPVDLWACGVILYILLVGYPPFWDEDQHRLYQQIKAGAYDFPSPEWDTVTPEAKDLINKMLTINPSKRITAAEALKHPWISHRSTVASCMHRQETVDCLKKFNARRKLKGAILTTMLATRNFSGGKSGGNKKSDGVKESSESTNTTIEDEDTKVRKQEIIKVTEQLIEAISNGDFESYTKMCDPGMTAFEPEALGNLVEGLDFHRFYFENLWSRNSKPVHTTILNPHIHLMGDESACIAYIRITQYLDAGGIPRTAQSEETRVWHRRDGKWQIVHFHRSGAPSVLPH
C[C@H](CC[C@@H](O)C(C)(C)O)[C@H]1CC[C@@]2(C)[C@@H]3CC=C4[C@@H](CC[C@H](O)C4(C)C)[C@]3(C)[C@H](O)C[C@]12C: -92%
C[C@@H]1C[C@H]2[C@@H]3C[C@H](F)C4=CC(=O)C=C[C@]4(C)[C@@]3(F)[C@@H](O)C[C@]2(C)[C@@]1(O)C(=O)CO: -8%
OCc1cn[nH]c1: -30%
O=C(O)C1=CO[C@@H](O[C@@H]2O[C@H](CO)[C@@H](O)[C@H](O)[C@H]2O)[C@@H]2C(CO)=C[C@H](O)[C@H]12: 2%
COc1c2c(cc3oc(C)cc(=O)c13)O[C@H](C(C)(C)O)C2: 3%
O=C1c2c(O)cccc2[C@@H]([C@@H]2O[C@H](CO)[C@@H](O)[C@H](O)[C@H]2O)c2cc(CO)cc(O)c21: -9%
CC(CC(=O)CC(C)(O)[C@H]1CC(=O)[C@@]2(C)C3=C(C(=O)C[C@]12C)[C@@]1(C)CCC(=O)C(C)(C)[C@@H]1C[C@@H]3O)C(=O)O (some centres unmarked): -21%
CC1(C)[C@H]2CCC3=C[C@@](C)([C@@H](O)CO)CC[C@H]3[C@]2(C)CC[C@H]1O[C@@H]1O[C@H](CO)[C@@H](O)[C@H](O)[C@H]1O: -85%
O=S(=O)(O)CCO: 15%
O=c1[nH]c2ccccc2c(-c2cccc(O)c2)c1O: 27%
Nc1nc(-n2cc(C(=O)O)c(=O)c3cc(F)c(N4CC(O)C4)c(Cl)c32)c(F)cc1F: 4%
CC(C)CCC[C@@H](C)[C@H]1CC[C@H]2[C@@H]3[C@H](O)C=C4C[C@@H](O)CC[C@]4(C)[C@H]3CC[C@]12C: -4%
Clc1ccc2nsnc2c1NC1=NCCN1: -5%
CC(C(=O)O)c1ccc(-c2ccccc2)c(F)c1 (centres unmarked): -1%
COc1cc(O)c(CC=C(C)C)c2c1C(=O)C[C@@H](c1ccc(O)cc1)O2: 0.01%
COc1cc(O)c2c(=O)c(-c3ccc(O)cc3)coc2c1: 7%

Sample 2 — concentration: 1 µM; quantity: remaining binding
SMILES: O=C(Nc1cnc(Oc2ccc(F)cc2)nc1)N1CCc2ncccc2[C@@H]1c1ccc(F)cc1
BMP2K (Homo sapiens, UniProt Q9NSY1); cell-free assay, competition with immobilised ligand: 93%
PLK1 (Homo sapiens, UniProt P53350); cell-free assay, competition with immobilised ligand: 80%
STK36 (Homo sapiens, UniProt Q9NRP7); cell-free assay, competition with immobilised ligand: 91%
TAOK3 (Homo sapiens, UniProt Q9H2K8); cell-free assay, competition with immobilised ligand: 100%
MET (Homo sapiens, UniProt P08581, M1250T); cell-free assay, competition with immobilised ligand: 100%
DMPK (Homo sapiens, UniProt Q09013); cell-free assay, competition with immobilised ligand: 98%
SBK1 (Homo sapiens, UniProt Q52WX2); cell-free assay, competition with immobilised ligand: 100%
MAP3K15 (Homo sapiens, UniProt Q6ZN16); cell-free assay, competition with immobilised ligand: 100%
SRPK1 (Homo sapiens, UniProt Q96SB4); cell-free assay, competition with immobilised ligand: 100%
FLT3 (Homo sapiens, UniProt P36888, D835H); cell-free assay, competition with immobilised ligand: 100%
EGFR (Homo sapiens, UniProt P00533, L858R); cell-free assay, competition with immobilised ligand: 92%
CDK13 (Homo sapiens, UniProt Q14004); cell-free assay, competition with immobilised ligand: 100%
PIK3CA (Homo sapiens, UniProt P42336, Q546K); cell-free assay, competition with immobilised ligand: 95%
FLT3 (Homo sapiens, UniProt P36888, D835V/ITD); cell-free assay, competition with immobilised ligand: 100%
EGFR (Homo sapiens, UniProt P00533, T790M); cell-free assay, competition with immobilised ligand: 91%
STK10 (Homo sapiens, UniProt O94804); cell-free assay, competition with immobilised ligand: 94%
MYLK4 (Homo sapiens, UniProt Q86YV6); cell-free assay, competition with immobilised ligand: 88%
AAK1 (Homo sapiens, UniProt Q2M2I8); binding: 91%
FGFR1 (Homo sapiens, UniProt P11362); cell-free assay, competition with immobilised ligand: 82%
Ribosomal protein S6 kinase alpha-2, N-terminal kinase domain (RPS6KA2, Homo sapiens, UniProt Q15349); cell-free assay, competition with immobilised ligand: 97%
TTK (Homo sapiens, UniProt P33981); cell-free assay, competition with immobilised ligand: 86%
MARK4 (Homo sapiens, UniProt Q96L34); cell-free assay, competition with immobilised ligand: 91%
CSNK1D (Homo sapiens, UniProt P48730); cell-free assay, competition with immobilised ligand: 100%
Ribosomal protein S6 kinase alpha-6, C-terminal kinase domain (RPS6KA6, Homo sapiens, UniProt Q9UK32); cell-free assay, competition with immobilised ligand: 82%
MELK (Homo sapiens, UniProt Q14680); cell-free assay, competition with immobilised ligand: 66%

Sample 3 — observed: enzyme activity; mode: inhibitor; concentration: 0.5 µM; baseline: control; quantity: remaining activity
Compound: FC(F)(F)c1ccc(/C=C/c2nc(COc3ccc(CCCCn4ccnn4)cc3)co2)cc1
MAPKAPK3 (Homo sapiens, UniProt Q16644): 98.9%
BLK (Homo sapiens, UniProt P51451): 102%
TSSK2 (Homo sapiens, UniProt Q96PF2): 100%
RPS6KA6 (Homo sapiens, UniProt Q9UK32): 100%
HIPK2 (Homo sapiens, UniProt Q9H2X6): 90.2%
RPS6KA5 (Homo sapiens, UniProt O75582): 111%
Cyclin-dependent kinase 1, with cyclin B (CDK1, Homo sapiens, UniProt P06493): 93.8%
SRMS (Homo sapiens, UniProt Q9H3Y6): 93.5%
STK16 (Homo sapiens, UniProt O75716): 104%
EPHB4 (Homo sapiens, UniProt P54760): 92.2%
Cyclin-dependent kinase 4, with cyclin D3 (CDK4, Homo sapiens, UniProt P11802): 119%
MAP4K4 (Homo sapiens, UniProt O95819): 95.1%
WNK3 (Homo sapiens, UniProt Q9BYP7): 98.5%
EPHB1 (Homo sapiens, UniProt P54762): 99.4%
EPHA4 (Homo sapiens, UniProt P54764): 98.8%
HIPK4 (Homo sapiens, UniProt Q8NE63): 105%
CAMK2B (Homo sapiens, UniProt Q13554): 99.3%
AXL (Homo sapiens, UniProt P30530): 101%
PHKG1 (Homo sapiens, UniProt Q16816): 92.9%
DYRK3 (Homo sapiens, UniProt O43781): 109%
PDPK1 (Homo sapiens, UniProt O15530): 104%
PRKACG (Homo sapiens, UniProt P22612): 105%
STK17A (Homo sapiens, UniProt Q9UEE5): 103%
Cyclin-dependent kinase 6, with cyclin D3 (CDK6, Homo sapiens, UniProt Q00534): 90%

Sample 4 — observed: kinase activity; mode: inhibitor; concentration: 1 µM; quantity: remaining activity
Compound: CC(C)S(=O)(=O)c1ccc2nccc(Nc3ccc4sc(C5CCCC5)nc4c3)c2c1.Cl
IRAK4 (Homo sapiens, UniProt Q9NWZ3): 110%
CDC42BPG (Homo sapiens, UniProt Q6DT37): 104%
AXL (Homo sapiens, UniProt P30530): 98%
KIT (Homo sapiens, UniProt P10721): 78%
PRKACB (Homo sapiens, UniProt P22694): 96%
PRKCZ (Homo sapiens, UniProt Q05513): 121%
CLK3 (Homo sapiens, UniProt P49761): 105%
PRPF4B (Homo sapiens, UniProt Q13523): 94%
STK4 (Homo sapiens, UniProt Q13043): 99%
PAK2 (Homo sapiens, UniProt Q13177): 93%
TTBK2 (Homo sapiens, UniProt Q6IQ55): 94%
TSSK1B (Homo sapiens, UniProt Q9BXA7): 98%

For quick reference, copied from above (sample 1):
CC(C)CCC[C@@H](C)[C@H]1CC[C@H]2[C@@H]3[C@H](O)C=C4C[C@@H](O)CC[C@]4(C)[C@H]3CC[C@]12C: -4%
O=c1[nH]c2ccccc2c(-c2cccc(O)c2)c1O: 27%
C[C@@H]1C[C@H]2[C@@H]3C[C@H](F)C4=CC(=O)C=C[C@]4(C)[C@@]3(F)[C@@H](O)C[C@]2(C)[C@@]1(O)C(=O)CO: -8%
OCc1cn[nH]c1: -30%
COc1cc(O)c2c(=O)c(-c3ccc(O)cc3)coc2c1: 7%
CC(CC(=O)CC(C)(O)[C@H]1CC(=O)[C@@]2(C)C3=C(C(=O)C[C@]12C)[C@@]1(C)CCC(=O)C(C)(C)[C@@H]1C[C@@H]3O)C(=O)O (some centres unmarked): -21%
COc1cc(O)c(CC=C(C)C)c2c1C(=O)C[C@@H](c1ccc(O)cc1)O2: 0.01%
C[C@H](CC[C@@H](O)C(C)(C)O)[C@H]1CC[C@@]2(C)[C@@H]3CC=C4[C@@H](CC[C@H](O)C4(C)C)[C@]3(C)[C@H](O)C[C@]12C: -92%
CC(C(=O)O)c1ccc(-c2ccccc2)c(F)c1 (centres unmarked): -1%
Clc1ccc2nsnc2c1NC1=NCCN1: -5%
